Assay results gathered from unrelated publications.
Each line is one published result; not all experiments were run side by side.
UniProt Q15303, sequence (whole entry, looked up): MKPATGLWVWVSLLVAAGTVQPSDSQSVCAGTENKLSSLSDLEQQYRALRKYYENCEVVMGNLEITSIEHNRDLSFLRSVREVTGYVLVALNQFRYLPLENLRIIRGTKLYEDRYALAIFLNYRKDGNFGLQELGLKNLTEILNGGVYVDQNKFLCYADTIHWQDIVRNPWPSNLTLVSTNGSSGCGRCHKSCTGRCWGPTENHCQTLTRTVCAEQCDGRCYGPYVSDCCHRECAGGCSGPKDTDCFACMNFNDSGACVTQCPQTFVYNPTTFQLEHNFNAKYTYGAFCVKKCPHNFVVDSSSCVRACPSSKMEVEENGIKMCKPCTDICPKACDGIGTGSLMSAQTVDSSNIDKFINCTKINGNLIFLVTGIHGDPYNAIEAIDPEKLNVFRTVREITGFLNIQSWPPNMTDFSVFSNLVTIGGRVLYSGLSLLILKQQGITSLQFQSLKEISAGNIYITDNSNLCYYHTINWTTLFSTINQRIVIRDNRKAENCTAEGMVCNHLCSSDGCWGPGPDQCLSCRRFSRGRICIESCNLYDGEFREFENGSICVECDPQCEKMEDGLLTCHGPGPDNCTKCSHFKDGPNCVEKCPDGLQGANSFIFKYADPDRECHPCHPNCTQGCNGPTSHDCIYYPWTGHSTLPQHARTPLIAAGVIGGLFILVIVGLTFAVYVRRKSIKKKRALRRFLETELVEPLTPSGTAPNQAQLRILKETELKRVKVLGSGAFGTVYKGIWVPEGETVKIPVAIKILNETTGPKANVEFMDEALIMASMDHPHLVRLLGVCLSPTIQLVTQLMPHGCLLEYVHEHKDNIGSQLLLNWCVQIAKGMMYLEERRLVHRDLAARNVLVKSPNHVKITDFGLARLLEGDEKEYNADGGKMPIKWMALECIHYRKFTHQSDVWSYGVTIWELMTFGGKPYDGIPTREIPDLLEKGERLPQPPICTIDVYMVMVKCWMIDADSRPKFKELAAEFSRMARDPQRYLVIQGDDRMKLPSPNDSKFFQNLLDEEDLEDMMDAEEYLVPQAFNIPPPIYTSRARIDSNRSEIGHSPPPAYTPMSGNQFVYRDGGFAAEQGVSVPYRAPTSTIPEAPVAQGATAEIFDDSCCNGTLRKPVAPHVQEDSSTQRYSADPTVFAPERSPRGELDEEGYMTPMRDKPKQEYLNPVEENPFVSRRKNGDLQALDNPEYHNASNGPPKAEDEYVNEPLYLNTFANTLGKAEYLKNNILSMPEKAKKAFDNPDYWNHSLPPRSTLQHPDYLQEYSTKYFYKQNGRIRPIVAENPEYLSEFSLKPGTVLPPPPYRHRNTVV
UniProt P42785, sequence (whole entry, looked up): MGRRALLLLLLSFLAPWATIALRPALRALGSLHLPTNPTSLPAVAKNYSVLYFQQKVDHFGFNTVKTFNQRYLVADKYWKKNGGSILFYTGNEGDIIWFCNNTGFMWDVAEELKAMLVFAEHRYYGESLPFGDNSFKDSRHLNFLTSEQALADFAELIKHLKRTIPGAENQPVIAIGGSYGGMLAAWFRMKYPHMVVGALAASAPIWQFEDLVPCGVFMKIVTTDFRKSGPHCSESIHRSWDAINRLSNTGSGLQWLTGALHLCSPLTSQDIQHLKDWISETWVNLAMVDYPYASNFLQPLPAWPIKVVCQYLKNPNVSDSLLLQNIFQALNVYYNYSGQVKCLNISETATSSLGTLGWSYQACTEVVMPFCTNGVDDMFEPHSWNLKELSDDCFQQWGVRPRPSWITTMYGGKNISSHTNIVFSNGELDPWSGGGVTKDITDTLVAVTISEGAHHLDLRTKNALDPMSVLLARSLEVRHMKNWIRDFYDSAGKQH
UniProt Q96AM1, sequence (whole entry, looked up): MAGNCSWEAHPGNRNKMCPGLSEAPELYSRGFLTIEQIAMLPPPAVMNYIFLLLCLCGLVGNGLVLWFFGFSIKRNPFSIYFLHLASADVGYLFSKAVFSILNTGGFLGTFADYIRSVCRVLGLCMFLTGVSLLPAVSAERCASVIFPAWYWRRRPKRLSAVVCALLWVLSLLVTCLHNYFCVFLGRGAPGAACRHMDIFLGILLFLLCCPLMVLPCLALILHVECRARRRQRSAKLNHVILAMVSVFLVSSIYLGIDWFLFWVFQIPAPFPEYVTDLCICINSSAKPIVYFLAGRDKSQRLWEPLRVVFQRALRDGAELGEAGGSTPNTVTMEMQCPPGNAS
UniProt Q99500, sequence (whole entry, looked up): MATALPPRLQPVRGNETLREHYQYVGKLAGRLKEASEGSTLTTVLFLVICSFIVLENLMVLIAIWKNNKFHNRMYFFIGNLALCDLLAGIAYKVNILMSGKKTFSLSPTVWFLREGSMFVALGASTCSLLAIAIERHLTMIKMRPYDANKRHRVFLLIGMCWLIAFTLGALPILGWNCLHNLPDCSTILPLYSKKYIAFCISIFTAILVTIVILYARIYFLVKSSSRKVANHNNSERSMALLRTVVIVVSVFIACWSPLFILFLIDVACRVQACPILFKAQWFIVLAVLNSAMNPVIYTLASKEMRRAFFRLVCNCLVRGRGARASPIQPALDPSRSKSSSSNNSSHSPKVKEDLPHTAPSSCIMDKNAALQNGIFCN
UniProt Q9H1Y3, sequence (whole entry, looked up): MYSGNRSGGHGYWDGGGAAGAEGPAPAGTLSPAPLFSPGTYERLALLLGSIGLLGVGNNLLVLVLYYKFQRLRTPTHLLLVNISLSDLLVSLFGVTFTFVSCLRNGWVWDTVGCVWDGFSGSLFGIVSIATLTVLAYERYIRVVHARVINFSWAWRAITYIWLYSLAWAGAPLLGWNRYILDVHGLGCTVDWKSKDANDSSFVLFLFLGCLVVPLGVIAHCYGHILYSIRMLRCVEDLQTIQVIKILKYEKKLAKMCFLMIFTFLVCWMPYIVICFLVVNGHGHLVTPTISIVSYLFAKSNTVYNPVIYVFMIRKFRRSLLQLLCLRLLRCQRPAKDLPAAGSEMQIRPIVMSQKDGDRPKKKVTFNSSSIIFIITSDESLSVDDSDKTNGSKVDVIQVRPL
UniProt Q08881, sequence (whole entry, looked up): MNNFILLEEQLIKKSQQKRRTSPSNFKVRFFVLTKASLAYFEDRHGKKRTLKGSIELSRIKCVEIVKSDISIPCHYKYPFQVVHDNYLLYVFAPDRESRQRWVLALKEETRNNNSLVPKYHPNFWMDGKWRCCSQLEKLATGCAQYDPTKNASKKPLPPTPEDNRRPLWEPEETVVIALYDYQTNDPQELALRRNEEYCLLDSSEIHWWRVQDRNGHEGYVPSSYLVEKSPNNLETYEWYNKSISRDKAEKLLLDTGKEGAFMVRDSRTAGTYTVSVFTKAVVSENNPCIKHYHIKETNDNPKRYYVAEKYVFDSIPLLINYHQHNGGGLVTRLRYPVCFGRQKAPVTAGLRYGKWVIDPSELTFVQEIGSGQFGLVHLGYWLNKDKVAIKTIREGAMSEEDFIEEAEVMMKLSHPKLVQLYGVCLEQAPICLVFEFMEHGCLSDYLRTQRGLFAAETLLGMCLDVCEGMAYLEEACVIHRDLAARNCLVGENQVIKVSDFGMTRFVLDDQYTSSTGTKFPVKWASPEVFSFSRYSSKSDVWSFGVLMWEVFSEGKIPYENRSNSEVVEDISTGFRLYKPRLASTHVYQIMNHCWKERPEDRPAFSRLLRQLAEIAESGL
UniProt O15075, sequence (whole entry, looked up): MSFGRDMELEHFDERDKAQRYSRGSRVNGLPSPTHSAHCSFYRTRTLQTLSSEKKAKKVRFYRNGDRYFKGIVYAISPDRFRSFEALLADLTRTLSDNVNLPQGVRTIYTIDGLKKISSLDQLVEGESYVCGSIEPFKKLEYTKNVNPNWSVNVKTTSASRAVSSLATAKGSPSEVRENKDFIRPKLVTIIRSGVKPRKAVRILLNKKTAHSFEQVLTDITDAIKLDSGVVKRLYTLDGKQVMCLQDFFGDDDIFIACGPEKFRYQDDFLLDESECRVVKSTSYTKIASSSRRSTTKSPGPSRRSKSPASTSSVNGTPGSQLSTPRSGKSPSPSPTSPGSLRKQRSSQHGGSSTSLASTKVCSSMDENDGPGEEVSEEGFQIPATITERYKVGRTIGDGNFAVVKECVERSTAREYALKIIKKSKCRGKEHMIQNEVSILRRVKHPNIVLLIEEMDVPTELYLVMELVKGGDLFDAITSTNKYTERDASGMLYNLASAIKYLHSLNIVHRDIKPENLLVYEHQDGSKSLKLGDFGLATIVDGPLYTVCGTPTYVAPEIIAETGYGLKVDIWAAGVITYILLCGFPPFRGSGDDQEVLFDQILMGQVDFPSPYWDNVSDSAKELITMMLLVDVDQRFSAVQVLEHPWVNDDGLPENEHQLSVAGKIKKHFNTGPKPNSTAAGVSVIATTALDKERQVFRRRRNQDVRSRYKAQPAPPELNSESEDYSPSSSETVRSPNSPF

[2H]c1c([2H])c([C@]2([2H])CCCN2C(=O)C(C)(C)Oc2ccc3cn[nH]c3c2)c([2H])c([2H])c1C([2H])([2H])[2H]
remaining binding (DCLK1 (Homo sapiens, UniProt O15075); KINOMEscan; 1 µM; baseline: DMSO control): 84%

Oc1ccc2c3c1O[C@H]1[C@@H](O)CC[C@@]4(O)[C@@H](C2)N(CC2CCC2)CC[C@]314
log2 fold change (Mas-related G-protein coupled receptor member F (MRGPRF, Homo sapiens, UniProt Q96AM1); β-arrestin recruitment, TANGO luminescence, refers to: MRGPRF; concentration not given; baseline: basal luminescence): 0.283

C[C@H]1CN(c2n[nH]c3nc(N[C@H]4CC[C@H](NS(=O)(=O)CCC(F)(F)F)CC4)ncc23)CCO1
relative abundance (ERBB4 (Homo sapiens, UniProt Q15303); inhibitor, Kinobeads competition profiling; 20 µM; baseline: vehicle): 1.08

CN1CCN(c2cc(-c3ccncc3)c(-c3ccc4ccccc4c3)nn2)CC1
activation (S1PR3 (Homo sapiens, UniProt Q99500); agonist, FLIPR; 12.5 µM): -2.1%

COc1cc(N)c(Cl)cc1C(=O)NC1CN2CCC1CC2 (centres unmarked)
log2 fold change (Opsin-3 (OPN3, Homo sapiens, UniProt Q9H1Y3); β-arrestin recruitment, TANGO luminescence, refers to: OPN3; concentration not given; baseline: basal luminescence): 0.628

O=C(c1ccc(Cl)cc1)N1CCN2C(=O)N(OC(=O)N3CCOc4ccccc43)C(=O)C2C1 (centres unmarked)
median protein ratio (PRCP (Homo sapiens, UniProt P42785); MS-based ABPP; SW-620 conditioned medium; 10 µM, 1 h, 37 °C; baseline: compound over DMSO, lower = more inhibition): 1.16

CC[C@H](C)[C@H](NC(=O)CNC(=O)[C@@H](N)CCCCN)C(=O)N[C@@H](CC(C)C)C(=O)N[C@@H](CCCCN)C(=O)N[C@@H](CCCNC(=N)N)C(=O)N[C@@H](CCC(=O)O)C(=O)N[C@@H](CCCCN)C(=O)N[C@@H](CCCNC(=N)N)C(=O)N[C@@H](CC(C)C)C(=O)N[C@@H](CCCNC(=N)N)C(=O)N[C@@H](CCCNC(=N)N)C(=O)N[C@@H](CCCCN)C(=O)N[C@@H](CC(N)=O)C(=O)N[C@H](C(=O)N[C@@H](Cc1c[nH]cn1)C(=O)N[C@@H](Cc1c[nH]c2ccccc12)C(=O)N1CCC[C@H]1C(=O)N[C@@H](CCC(=O)O)C(=O)N[C@@H](CCC(=O)O)C(=O)NCC(=O)N[C@@H](CCCCN)C(=O)N[C@@H](CC(C)C)C(=O)N[C@@H](CCCNC(=N)N)C(=O)N[C@@H](CCC(=O)O)C(=O)N[C@@H](Cc1ccc(O)cc1)C(=O)N[C@@H](Cc1ccccc1)C(=O)N[C@@H](Cc1ccc(O)cc1)C(=O)N[C@@H](Cc1ccccc1)C(=O)N[C@@H](CCC(=O)O)C(=O)N[C@@H](CC(C)C)C(=O)N[C@@H](CC(=O)O)C(=O)N[C@@H](CCC(=O)O)C(=O)N[C@@H](C)C(=O)N[C@@H](CCC(=O)O)C(=O)N[C@@H](CCCNC(=N)N)C(=O)N[C@H](C(=O)N[C@@H](CC(N)=O)C(=O)N[C@H](C(=O)O)C(C)C)C(C)C)C(C)C
log2 fold change (HeLa and HEK-293T cells; phosphatase bead binding, competitive inhibitor, PIB pulldown iBAQ LC-MS/MS, refers to: SIKE1; concentration not given; baseline: untreated control): -0.12

COc1ccc(N2C(=O)N(c3c(C)cccc3Cl)Cc3cnc(Nc4ccc(C5CCN(C)CC5)cc4OC)nc32)nc1
inhibition (ITK (Homo sapiens, UniProt Q08881); kinase activity; 0.5 µM): 0.445%

Repeated from above:
COc1ccc(N2C(=O)N(c3c(C)cccc3Cl)Cc3cnc(Nc4ccc(C5CCN(C)CC5)cc4OC)nc32)nc1
inhibition (ITK (Homo sapiens, UniProt Q08881); kinase activity; 0.5 µM): 0.445%
